# Measured values of several laboratories.
# Every numbered part comes from another study and shows a few of its results, in no order.

# Study 1 — method: universal PBM; molecule type: double-stranded DNA, one strand shown; medium: in vitro; concentration: 600 nM; direction: higher = stronger binding
# Target: Sal-like protein 4, full length isoform A (SALL4, Homo sapiens, UniProt Q9UJQ4, residues 1-1053)
# UniProt Q9UJQ4, sequence (whole entry, looked up): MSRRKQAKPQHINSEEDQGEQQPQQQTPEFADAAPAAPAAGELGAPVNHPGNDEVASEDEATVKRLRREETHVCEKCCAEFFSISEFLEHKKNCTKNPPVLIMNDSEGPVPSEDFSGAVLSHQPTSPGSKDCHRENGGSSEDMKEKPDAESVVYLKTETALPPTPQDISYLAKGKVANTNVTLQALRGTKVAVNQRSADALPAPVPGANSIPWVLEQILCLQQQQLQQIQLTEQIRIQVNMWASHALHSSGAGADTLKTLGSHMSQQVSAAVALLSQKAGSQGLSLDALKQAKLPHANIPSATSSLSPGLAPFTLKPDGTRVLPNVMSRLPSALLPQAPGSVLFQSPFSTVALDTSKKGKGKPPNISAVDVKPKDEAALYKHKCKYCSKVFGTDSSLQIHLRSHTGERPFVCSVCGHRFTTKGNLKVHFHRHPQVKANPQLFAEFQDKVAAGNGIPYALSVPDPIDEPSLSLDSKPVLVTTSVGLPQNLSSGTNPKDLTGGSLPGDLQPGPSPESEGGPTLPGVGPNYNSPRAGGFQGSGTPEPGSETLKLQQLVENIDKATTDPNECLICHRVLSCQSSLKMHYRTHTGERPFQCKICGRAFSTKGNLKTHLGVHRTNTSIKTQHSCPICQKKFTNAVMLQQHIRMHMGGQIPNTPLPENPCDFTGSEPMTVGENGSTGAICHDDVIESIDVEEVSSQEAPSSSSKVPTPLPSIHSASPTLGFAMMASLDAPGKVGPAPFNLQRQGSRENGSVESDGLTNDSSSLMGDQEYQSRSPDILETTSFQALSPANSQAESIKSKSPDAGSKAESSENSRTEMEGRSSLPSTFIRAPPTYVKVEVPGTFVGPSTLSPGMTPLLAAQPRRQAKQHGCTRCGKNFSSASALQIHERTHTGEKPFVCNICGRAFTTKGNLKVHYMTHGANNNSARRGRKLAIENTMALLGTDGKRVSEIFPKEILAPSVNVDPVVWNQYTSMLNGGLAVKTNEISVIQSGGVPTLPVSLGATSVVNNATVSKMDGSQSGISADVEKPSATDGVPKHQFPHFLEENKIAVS
# Setting: 8-mer, flanks averaged, mean of replicates
Oligonucleotide,E-score
AACATACT,0.147
AAACTGCT,0.0396
AAGATTGC,0.0658
CAATTCTA,0.204
TCGTTAAA,0.158
GTCGGCGA,-0.253
TACCCTAA,0.0462
ACTAACCG,-0.104
GCACACGC,-0.193
AGTAAGAG,0.0275
GGAGAGCA,-0.0802
TAGTCTAA,0.0641
CCGACCGC,-0.257
CCCCTCAC,-0.261
CAGAAGAA,-0.0863
AACAGTGC,-0.0308
ATGATCGG,0.0832

# Study 2 — method: RNA Bind-n-Seq; molecule type: RNA; medium: in vitro; concentration: 200 nM; setting: whole 134-nt RNA, ends assumed; added: 150 mM LiCl; reference: input library; direction: higher = stronger binding; library: 7-deaza-guanosine replaces G
# Target: Fragile X messenger ribonucleoprotein 1, C-terminal low-complexity region (Fmr1, Mus musculus, UniProt P35922)
# All sequences stand within: GGGAGUUCUACAGUCCGACGAUC … UGGAAUUCUCGGGUGUCAAGG
Oligonucleotide,log2 enrichment
CCUGUGCUACACAUCGUAUGUACCGAAUCAAACCCCCAAACCCCCCCAAAUUUUUUUAAAAAAGUAUUAUGUUACGCCGUUCGGAUCUGC,1.36
GUCCUGUGCUACACAUCGUAUGUACCGAAUCAAAUUUUUUUAAAUUUAAACCCCCAAAAAAGUAUUAUGUUACGCCGUUCGGAUCUGCAC,0.313
UCCUGUGCUACACAUCGUAUGUACCGAAUCGGGUUUUUUGGUUUUUUGGGUUUUUUGGGAAAGUAUUAUGUUACGCCGUUCGGAUCUGCA,-0.782
UCCUGUGCUACACAUCGUAUGUACCGAAUCGGGGUUUUUGGGGUUUGGGGUUUUUGGGGAAAGUAUUAUGUUACGCCGUUCGGAUCUGCA,-1.28
UAACUUUAGAGGAGGAUCUGAUGGAUAUGGCAGUGGACGUGGAUUUGGGGAUGGCGAUAAUGGGUAUGGAGGAGGACCUGGAGGUGGCAA,1
UGGCCCUGGUGGCAUGCGGGGAGGAAGAGGUGGCCUCAUGGAACGUGGUGGUCCCGGUGGAAUGUUCAGAGGUGGCCGUGGUGGAGACAG,-0.267
CUCAAGUCCUGUGCUACACAUCGUAUGUACCGAAUCGGGGCCGGCCGGGGCCGGAAAGUAUUAUGUUACGCCGUUCGGAUCUGCACUUCC,0.84
GUCCUGUGCUACACAUCGUAUGUACCGAAUCGGGGUUUUUGGGGAGGGGAAAAAGGGGAAAGUAUUAUGUUACGCCGUUCGGAUCUGCAC,0.0202

# Study 3 — method: RNA Bind-n-Seq; molecule type: RNA; medium: in vitro; concentration: 365 nM; reference: no-protein control; direction: higher = stronger binding
# Target: RNA binding protein fox-1 homolog 2, RRM domain, GST-SBP tag (RBFOX2, Homo sapiens, UniProt O43251-10, residues 100-194)
# Setting: natural RNA segment, single round, ends assumed
# All sequences stand within: GGGAGUUCUACAGUCCGACGAUC … UGGAAUUCUCGGGUGCCAA
# Construct (chain): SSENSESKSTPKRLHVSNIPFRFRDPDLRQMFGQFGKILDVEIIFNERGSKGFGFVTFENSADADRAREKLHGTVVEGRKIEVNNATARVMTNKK
Oligonucleotide,RBNS enrichment (R)
GGUGUGCACUAGAAAACCCAGUGGUUGUUUUUAUUAUUGACUGUAGUCCAGCAUCACGGAGAAAGGCCAAUCCUCUUAGGAGCAUUGGACAGCUCAACCAUGUUGUCAUC,0.423
UAUUGGGGAAUGGAAACUUUGGGGGAGUGACUUUUUAAAGAGACACUUAUAAUUUCUACUACUGCACUACUGUCCAUUGUGGGAUGAUUAAACAUGGUAUUUAACUGUGC,0.77
GUAAAAUAUAUUUGGAAUUUGAUGAACCAAAAAUGUGAUUUCAGAUGACUAUUUUGUGACUUUCUUAAAAGGUCUGAUUUGUAGACUUCUAAAUAUAACACACAGCACAG,0.503
AUUGCUACAGAGAUAACUGCCCUGUAGUAUCCCAAUGGAUAUCACUCCCAGUCUCAAAUUGGGCUGGGUAUGGCGGUGUAUAUGCAUGGGAAGCGUCUUGGGGAGGGUGG,1.3
GAUUUCAGGAGAACCUAACAUGCUGGUGAAUAUUUUCAACUUUUUCCCUCACUAAUUGGUACUUUUAAAAACAUAACAUAAAUUUUUUGAAGUCUUUAAUAAAUAACCCA,0.34
AUUUCUAUGUGUAUGCAAGUACAAGUAUAUAAUAUGUCACCUGGCACAUUCAUUUUCUCAGUUGAAGAAGAGAAAAUUUGAAAAUGUCCUUAUGCUUUUAGAGUUGCAAC,0.54
GCUCCAGGCAGGACAUCAGACUGUCUGGGGAGUUGGCCCUGGGCUUCUGUGUUGUGUGCAGAGACUGCACAGUAAAACAGUCACUUUUGCCAACAAGAAUGUGUGGCGCC,0.399
GGCCUGAGAAAGGGCCAUGCCAGGGCACAGUGCUGGGUUGCCACACAUGGGAGGGCAGCUUCUAGCCGGGUGCUUGGGGGAGGCGGGGCUCAGCCUCCUGCUGCCCUGCC,0.343

# Study 4 — method: protein-binding microarray; molecule type: double-stranded DNA, one strand shown; medium: in vitro; concentration: 0.8 µM; setting: whole 60-bp probe, no competitor; direction: higher = stronger binding; all sequences stand within: … GTCTTGATTCGCTTGACGCTGCTG
# Target: Centromere-binding protein 1, full length, N-terminal tag (CBF1, Saccharomyces cerevisiae, UniProt P17106, residues 1-351)
# UniProt P17106, sequence (whole entry, looked up): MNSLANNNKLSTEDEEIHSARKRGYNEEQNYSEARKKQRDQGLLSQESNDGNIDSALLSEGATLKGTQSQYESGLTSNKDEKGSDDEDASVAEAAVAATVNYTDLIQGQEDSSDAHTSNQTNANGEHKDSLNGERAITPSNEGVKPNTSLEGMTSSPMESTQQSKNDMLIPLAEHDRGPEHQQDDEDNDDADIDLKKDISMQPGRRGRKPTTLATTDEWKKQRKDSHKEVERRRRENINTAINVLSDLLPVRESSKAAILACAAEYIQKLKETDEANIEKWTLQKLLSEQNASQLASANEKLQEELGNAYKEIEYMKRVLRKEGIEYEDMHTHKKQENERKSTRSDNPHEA
Oligonucleotide,fluorescence intensity [a.u.]
GAAGCACCAGCAAGTAGAGTCACGTACCCCCCATAG,674
GAATATTATCATTATCACGAGGAACCTCAATGTTAG,1170
GAAGCAATTTGAGATCAGGTGCCCAAGAACTCGTAG,3800
CTAAAAGTGAGTAGGAACGTGTATGTTTGTGTATTC,512
CTATCTGACGTACATCACGTGAACTGTTTTGCGTTC,12800
GAATGAAAATATGCGCACGTCTATACACACAATTAG,546
TGTACGAAGCTATTTGGTGACACTATAGTAGTTAGG,489
CTAACATATACCTTACAGGAGATCGGACGTGTGTTC,495
CTATTGCCATTCTTAAACGTGGCCTACAAGAACTTC,545
CTAAAATGTGAAGTTGATGTCACTTCATACTAATTC,534
CTATTTCAAAGCTGTCTCCACGTGGAAAGTTTATTC,3640
CTAGCGTGACATCAGTATGCGCTTTGGATGTTTTTC,558
GAACCGTAGGAAAGTTACCAGGTGAATTTAAATTAG,536
CTACCGGAACACCGGCACGTATTTCATAAAAAGTTC,499
GAAACTTCTTTTTTTCACATGAGAATGTAGTCCTAG,619
GAAAAAAATTTTCGCCTCGTGGCCCGAAACACGTAG,791
GAAAGCTACCAATAAAACGTGATAGATACTAACTAG,1230
CTATTGACGTTTTAACAGCTGATAACCGCCATTTTC,556
GAAGTAAGTGAGTGCCTCGTGAACTGCTATTTTTAG,533

# Study 5 — method: protein binding microarray; molecule type: double-stranded DNA, one strand shown; medium: in vitro; concentration: not given; reference: not given; direction: higher = stronger binding
# Target: Histone acetyltransferase KAT6A, winged helix 2, GST fusion (KAT6A, Homo sapiens, UniProt Q92794, residues 85-181)
# Setting: 8-mer, flanks averaged, mean of 2 arrays, mostly near background
# Residues (chain): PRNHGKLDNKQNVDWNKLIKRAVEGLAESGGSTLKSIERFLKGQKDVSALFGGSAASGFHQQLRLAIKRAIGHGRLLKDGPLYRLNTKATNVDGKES
Oligonucleotide,E-score
AACCAGTA,-0.128
GAAACAGA,0.147
AGGCGTCA,-0.0176
AGGAGGCC,-0.112
TCCCGCAA,0.0753
GGTTGGGA,-0.0595
CCTTTGGA,0.0669
CCACACAC,0.0893
AGGCTTAG,0.026
GCAAAAGA,-0.0884
GGCGTACC,0.185
ACGTCAGG,-0.205
CTGGCCGA,0.147
CCCAAATA,-0.0549
ACGACTCG,-0.158
CTCTTTAC,-0.0956
CACATGCA,-0.00269
GATCCTGC,0.0644
CAGGTGTC,-0.0918
AGACAAAA,-0.0495
ACGAAAGT,-0.0984
TATGCGAA,-0.0757
ACGCGCAA,0.153
CGGCCGGC,0.288

# Excerpt of the above (study 5):
Oligonucleotide,E-score
CCCAAATA,-0.0549
CACATGCA,-0.00269
GCAAAAGA,-0.0884
CCTTTGGA,0.0669
ACGTCAGG,-0.205
GGCGTACC,0.185
AACCAGTA,-0.128
CGGCCGGC,0.288
TATGCGAA,-0.0757
ACGACTCG,-0.158
GGTTGGGA,-0.0595
ACGCGCAA,0.153
